Experimental data pooled from the literature.
± gives the spread as reported. In brackets after ≈: the same amount, converted by molar mass.

Protein sequences, listed by entry. Tags and fused reporters are not part of them.
UniProt P52333, whole entry: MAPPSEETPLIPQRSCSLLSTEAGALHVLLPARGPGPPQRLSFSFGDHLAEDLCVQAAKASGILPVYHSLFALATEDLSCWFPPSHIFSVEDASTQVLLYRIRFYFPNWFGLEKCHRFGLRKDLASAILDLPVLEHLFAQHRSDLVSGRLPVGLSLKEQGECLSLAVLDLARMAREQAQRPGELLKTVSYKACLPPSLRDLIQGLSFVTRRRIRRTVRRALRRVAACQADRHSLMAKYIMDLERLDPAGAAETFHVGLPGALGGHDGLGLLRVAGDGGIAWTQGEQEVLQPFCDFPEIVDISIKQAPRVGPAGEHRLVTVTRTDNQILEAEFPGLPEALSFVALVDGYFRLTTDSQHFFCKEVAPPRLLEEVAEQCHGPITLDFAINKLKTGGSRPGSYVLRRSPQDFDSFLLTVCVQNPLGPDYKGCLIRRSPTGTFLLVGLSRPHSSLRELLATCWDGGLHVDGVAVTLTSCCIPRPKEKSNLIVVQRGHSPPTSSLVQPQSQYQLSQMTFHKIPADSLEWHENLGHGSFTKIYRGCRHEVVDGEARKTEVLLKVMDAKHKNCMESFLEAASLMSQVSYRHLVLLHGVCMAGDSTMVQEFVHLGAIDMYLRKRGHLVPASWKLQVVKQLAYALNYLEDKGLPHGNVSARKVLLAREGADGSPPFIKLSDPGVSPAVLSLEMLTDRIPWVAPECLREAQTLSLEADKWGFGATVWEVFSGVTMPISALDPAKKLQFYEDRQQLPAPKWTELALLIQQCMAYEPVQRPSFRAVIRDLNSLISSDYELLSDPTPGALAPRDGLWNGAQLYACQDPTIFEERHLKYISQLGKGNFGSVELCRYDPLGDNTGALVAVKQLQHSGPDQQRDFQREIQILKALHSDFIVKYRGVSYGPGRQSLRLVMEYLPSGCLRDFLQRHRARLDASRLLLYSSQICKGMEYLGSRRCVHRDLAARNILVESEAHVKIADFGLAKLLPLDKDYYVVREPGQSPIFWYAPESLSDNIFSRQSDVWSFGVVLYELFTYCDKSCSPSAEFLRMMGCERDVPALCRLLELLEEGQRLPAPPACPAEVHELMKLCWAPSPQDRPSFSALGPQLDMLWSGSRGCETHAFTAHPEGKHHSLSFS
UniProt Q9NR20, whole entry: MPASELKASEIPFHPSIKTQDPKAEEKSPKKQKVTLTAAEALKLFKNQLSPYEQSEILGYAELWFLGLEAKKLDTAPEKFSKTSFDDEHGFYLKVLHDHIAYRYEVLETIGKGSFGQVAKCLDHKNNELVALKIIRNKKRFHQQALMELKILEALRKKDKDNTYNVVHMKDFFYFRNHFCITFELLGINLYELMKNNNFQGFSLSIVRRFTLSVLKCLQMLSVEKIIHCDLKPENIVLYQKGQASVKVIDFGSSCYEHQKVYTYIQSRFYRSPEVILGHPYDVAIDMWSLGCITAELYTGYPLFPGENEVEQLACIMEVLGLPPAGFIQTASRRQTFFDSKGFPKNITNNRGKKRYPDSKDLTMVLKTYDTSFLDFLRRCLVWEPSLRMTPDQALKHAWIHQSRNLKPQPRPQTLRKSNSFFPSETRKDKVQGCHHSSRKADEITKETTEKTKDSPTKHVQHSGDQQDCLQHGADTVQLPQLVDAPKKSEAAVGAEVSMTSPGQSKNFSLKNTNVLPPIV

| Molecule | target or system | test | test system | conditions | scale | measurement | value |
| --- | --- | --- | --- | --- | --- | --- | --- |
| CC#C/C(=N\OC[C@H]1COCCN1)c1ccc2ncnc(Nc3ccc(OCc4cccc(F)c4)c(Cl)c3)c2c1 | JAK3 (Homo sapiens, UniProt P52333) | kinase activity |  | 10 µM |  | inhibition | -5.3% |
| Nc1ccc(C(=O)O)c(O)c1 | Mycobacterium bovis |  | BCG Tac^r2.3, fbiA L109P missense | TA-C-resistant F420 mutant |  | MIC50 | 0.4 µM (≈ 0.0613 µg/mL) |
| O=c1ccc2nc3ccc(OCc4ccccc4)cc3oc-2c1 | Mycobacterium tuberculosis |  | mc2 6206 clofazimine-resistant fbiC mutant | 7 days |  | MIC90 | > 256 µM |
| CCC(C)C1NC(=O)/C(=C(/C)O)C1=O (stereo not shown) | Arabidopsis thaliana |  | Col-0, seedlings on agar | 2.5 µM, 6 d | relative to: untreated seedlings | root length reduction | 1.6 cm |
| CC1(C)CCC(Cc2cc(O)c(-c3ccccc3)c(=O)[nH]2)CC1 | Mycobacterium tuberculosis |  | MDR clinical isolates |  |  | MIC | 0.04 to 0.16 µM |
| CSCOc1ccc2nc3ccc(=O)cc-3oc2c1 | Mycobacterium tuberculosis |  | mc2 6206 clofazimine-resistant fbiC mutant | 7 days |  | MIC90 | 198 µM (≈ 54.1 µg/mL) |
| O=c1oc(-c2ccc([N+](=O)[O-])cc2)ns1 | Mycobacterium bovis BCG |  |  | 25 µM |  | reduction in viable count | 0.8 log CFU |
| EDDHA | Cryptococcus neoformans |  |  | alone |  | MIC80 | 12.5 µM |
| O=[N+]([O-])c1ccc(N2CCN(c3ccc([N+](=O)[O-])cc3[N+](=O)[O-])CC2)c([N+](=O)[O-])c1 | Escherichia coli |  | multidrug-resistant |  |  | MIC | > 500 µg/mL |
| CCC(=N\O)/C(C)=C/c1ccc(F)cc1 | CS tear gas |  | male C57BL/6 mice, CS-induced skin injury, ear punch biopsy | intraperitoneal, dose not given, 6.5 h | relative to: vehicle | MMP9 level reduction | 64% |
| O=c1ccc2nc3ccc(OCc4ccc([N+](=O)[O-])o4)cc3oc-2c1 | Mycobacterium tuberculosis |  | mc2 6206, fbiC mutant, clofazimine-resistant |  |  | MIC90 | inactive |
| CO[C@H]1/C=C/O[C@@]2(C)Oc3c(C)c(O)c4c(O)c(c(/C=N/N5CCN(C)CC5)c(O)c4c3C2=O)NC(=O)/C(C)=C\C=C\[C@H](C)[C@H](O)[C@@H](C)[C@@H](O)[C@@H](C)[C@H](OC(C)=O)[C@@H]1C | Mycobacterium bovis |  | BCG Tac^r7.1, thyA mutant | TA-C-resistant thyA mutant |  | MIC50 | 0.0016 µM (≈ 0.00132 µg/mL) |
| COCCOc1ccc2nc3ccc(=O)cc-3oc2c1 | Mycobacterium tuberculosis |  | mc2 6206 PA-824-resistant ddn mutant | 7 days |  | MIC90 | 46 µM (≈ 12.5 µg/mL) |
| COc1cc(C(=O)NS(=O)(=O)c2ccccc2C)ccc1Cc1cn(C)c2ccc(NC(=O)OC3CCCC3)cc12 | vesicular stomatitis virus | viral replication | VSV-eGFP | concentration not given |  | inhibition | 12% |
| CC[C@H](C)[C@H](NC(=O)[C@H](Cc1c[nH]c2ccccc12)NC(=O)[C@H](CCCCN)NC(=O)[C@H](CCCCN)NC(=O)[C@H](CC(C)C)NC(=O)[C@H](Cc1c[nH]c2ccccc12)NC(=O)[C@H](CCCCN)NC(=O)[C@@H](N)Cc1c[nH]c2ccccc12)C(=O)N[C@@H](CCCCN)C(N)=O | Mycobacterium bovis |  | TMC 1012, 7H9 broth | 48 h, 37 °C, added: sodium pyruvate 40 mM |  | MIC | 10 µM |
| CCN1CCN(Cc2ccc(NC(=O)c3ccc(C)c(/C=C/c4cnc5[nH]ccc5c4OC)c3)cc2C(F)(F)F)CC1 | DYRK4 (Homo sapiens, UniProt Q9NR20) | inhibitor, cell-based kinome screen |  | 5 µM | relative to: vehicle | log2 fold change | 0.294 log2 |
| COc1ccc(Nc2cc(C)c3cc(NC(=O)c4ccc(N(C)C)cc4)ccc3n2)cc1 | vesicular stomatitis virus | viral replication | VSV-eGFP | concentration not given |  | inhibition | 5% |
| Cc1cc2c(c(=S)[nH]1)C(=O)O/C2=C\c1c[nH]c2ccc(F)cc12 | Influenza A virus | viral replication, CPE, MTT | MDCK, A/Puerto Rico/8/34 (H1N1) | 72 h |  | EC50 | 17.8 ± 10.6 µM |
| O=[N+]([O-])c1cn2c(n1)OC[C@@H](OCc1ccc(OC(F)(F)F)cc1)C2 | Mycobacterium bovis |  | BCG Tac^r10.2, thyA W98R missense | TA-C-resistant thyA mutant |  | MIC50 | 0.2 µM (≈ 0.0719 µg/mL) |
| CC[C@H](C)[C@H](NC(=O)[C@H](Cc1ccc(O)cc1)NC(=O)[C@H](CO)NC(=O)[C@H](CCC(=O)O)NC(=O)[C@H](CCC(=O)O)NC(=O)[C@H](CC(C)C)NC(=O)[C@H](CCCCN)NC(=O)[C@H](CCCCN)NC(=O)[C@@H](NC(=O)[C@@H](NC(=O)[C@H](CCC(=O)O)NC(=O)[C@H](CCC(=O)O)NC(=O)[C@H](CC(C)C)NC(=O)[C@H](CCCCN)NC(=O)[C@H](CCCCN)NC(=O)[C@H](CCSC)NC(=O)[C@H](CCC(=O)O)NC(=O)[C@H](Cc1ccc(O)cc1)NC(=O)[C@H](CCC(=O)O)NC(=O)[C@H](CC(C)C)NC(=O)[C@H](CC(=O)O)NC(=O)[C@H](CC(C)C)NC(=O)[C@H](CC(C)C)NC(=O)[C@@H](NC(=O)[C@@H](NC(=O)[C@H](CC(N)=O)NC(=O)[C@@H](NC(=O)[C@H](CCC(N)=O)NC(=O)[C@@H](NC(=O)[C@H](CC(C)C)NC(=O)[C@H](CO)NC(C)=O)[C@@H](C)O)[C@@H](C)CC)[C@@H](C)O)[C@@H](C)O)C(C)C)C(C)C)C(=O)N[C@@H](CC(=O)O)C(=O)N[C@@H](CC(C)C)C(=O)N[C@@H](CCCCN)C(=O)N[C@@H](CCC(=O)O)C(=O)N[C@@H](CC(C)C)C(N)=O | influenza A virus | viral replication | MDCK, A/Hong Kong/8/68 H3N2 | 72 h |  | EC50 | > 20 µM |
| Cn1c(COc2ccc3nc4ccc(=O)cc-4oc3c2)cnc1[N+](=O)[O-] | Mycobacterium tuberculosis |  | mc2 6206 clofazimine-resistant fbiC mutant | 7 days |  | MIC90 | > 256 µM |
| CC(C)[C@H](NC(=O)[C@H](Cc1c[nH]c2ccccc12)NC(=O)[C@H](CCCNC(=N)N)NC(=O)[C@H](Cc1c[nH]c2ccccc12)NC(=O)[C@H](Cc1c[nH]c2ccccc12)NC(=O)[C@H](CCCNC(=N)N)NC(=O)[C@@H](N)CCCNC(=N)N)C(=O)N[C@H](C(=O)N[C@@H](Cc1c[nH]c2ccccc12)C(N)=O)C(C)C | Mycobacterium bovis |  | TMC 1012, 7H9 broth | 48 h, 37 °C, added: sodium pyruvate 40 mM |  | MIC | 10 µM |
| O=c1ccc2ccc(OCc3ccc([N+](=O)[O-])o3)cc2o1 | Mycobacterium tuberculosis |  | mc2 6206 clofazimine-resistant fbiC mutant | 7 days |  | MIC90 | > 256 µM |
| Cc1ccc(-c2nsc(=O)o2)s1 | Mycobacterium bovis BCG |  |  | 25 µM |  | reduction in viable count | 1.7 log CFU |
| O=c1ccc2nc3ccc(OCc4ccc([N+](=O)[O-])o4)cc3oc-2c1I | Mycobacterium tuberculosis |  | mc2 6206 clofazimine-resistant fbiC mutant | 7 days |  | MIC90 | > 256 µM |
| CNC(=O)CCCCC1CCSS1 (stereo not shown) | Plasmodium falciparum | parasite growth | infected erythrocytes | blood stage |  | EC50 | 15 µM |
| NNC(=O)c1ccncc1 | Mycobacterium bovis |  | BCG Tac^r7.1, thyA A148E missense | TA-C-resistant thyA mutant |  | MIC50 | 0.4 µM (≈ 0.0549 µg/mL) |
| O=c1ccc2nc3ccc(OCC4(CO)COC4)cc3oc-2c1 | Mycobacterium tuberculosis |  | mc2 6206 clofazimine-resistant fbiC mutant | 7 days |  | MIC90 | > 256 µM |

A few entries again:
| Molecule | target or system | test | test system | conditions | scale | measurement | value |
| --- | --- | --- | --- | --- | --- | --- | --- |
| CC(C)[C@H](NC(=O)[C@H](Cc1c[nH]c2ccccc12)NC(=O)[C@H](CCCNC(=N)N)NC(=O)[C@H](Cc1c[nH]c2ccccc12)NC(=O)[C@H](Cc1c[nH]c2ccccc12)NC(=O)[C@H](CCCNC(=N)N)NC(=O)[C@@H](N)CCCNC(=N)N)C(=O)N[C@H](C(=O)N[C@@H](Cc1c[nH]c2ccccc12)C(N)=O)C(C)C | Mycobacterium bovis |  | TMC 1012, 7H9 broth | 48 h, 37 °C, added: sodium pyruvate 40 mM |  | MIC | 10 µM |
| Cc1cc2c(c(=S)[nH]1)C(=O)O/C2=C\c1c[nH]c2ccc(F)cc12 | Influenza A virus | viral replication, CPE, MTT | MDCK, A/Puerto Rico/8/34 (H1N1) | 72 h |  | EC50 | 17.8 ± 10.6 µM |
